Measured values from different studies.
Each line is one published result; not all experiments were run side by side. ≈ marks a conversion by molar mass, not a printed value.
Organism: Pseudomonas aeruginosa

`CC(C)C[C@H](NC(=O)[C@@H]1CSCC(=O)N[C@@H](CCCCN)C(=O)N[C@@H](CC(C)C)C(=O)N[C@@H](CCCCN)C(=O)N[C@H]2CCCCNC(=O)[C@H](CCCCN)NC(=O)[C@H](CC(C)C)NC(=O)[C@H](CCCCN)NC(=O)CSC[C@H](NC(=O)[C@H](CC(C)C)NC(=O)[C@H](CC(C)C)NC(=O)[C@H](CCCCN)NC2=O)C(=O)N[C@@H](CCCCN)C(=O)N[C@@H](CC(C)C)C(=O)N[C@@H](CCCCN)C(=O)N1)C(N)=O`: “minimal biofilm inhibitory concentration” 16 µg/mL (PAO1; 24 to 25 h).
For `ONCC1CCCCC1`, the MIC50 was < 17 µg/mL (microbial growth; ATCC15692; 8 h).
The lethal concentration of `CC[C@H](C)[C@H](NC(=O)[C@H](CCCCN)NC(=O)[C@H](CCCCN)NC(=O)[C@H](CC(C)C)NC(=O)[C@H](CCCCN)NC(=O)[C@H](CCC(=O)O)NC(=O)[C@H](CCCCN)NC(=O)[C@@H](NC(=O)[C@H](CCCCN)NC(=O)[C@H](CC(N)=O)NC(=O)[C@H](CCCNC(=N)N)NC(=O)[C@H](Cc1ccccc1)NC(=O)[C@H](CCCCN)NC(=O)[C@H](CCCNC(=N)N)NC(=O)[C@H](CC(C)C)NC(=O)[C@H](CCCNC(=N)N)NC(=O)[C@H](CCCCN)NC(=O)[C@H](CCCNC(=N)N)NC(=O)[C@H](CC(C)C)NC(=O)[C@@H](N)CCCNC(=N)N)[C@@H](C)CC)C(=O)NCC(=O)N[C@@H](CCC(N)=O)C(=O)N[C@@H](CCCCN)C(=O)N[C@H](C(=O)N[C@@H](CCC(N)=O)C(=O)NCC(=O)N[C@@H](Cc1ccccc1)C(=O)N[C@H](C(=O)N1CCC[C@H]1C(=O)N[C@@H](CCCCN)C(=O)N[C@@H](CC(C)C)C(=O)N[C@@H](CCC(N)=O)C(=O)N1CCC[C@H]1C(=O)N[C@@H](CO)C(=O)N[C@@H](CCCCN)C(=O)N[C@@H](CCC(N)=O)C(=O)N[C@@H](CO)C(=O)O)C(C)C)[C@@H](C)CC` is reported as 4.34 µM (inhibition zone; DH).
The FIC index of `CCCCCCCC(=O)NCC(=O)N[C@@H](CC(C)C)C(=O)N[C@@H](CC(C)C)C(=O)N[C@@H](CCCCN)C(=O)N[C@@H](CCCNC(=N)N)C(=O)N[C@H](C(=O)N[C@@H](CCCCN)C(=O)N[C@H](C(=O)N[C@@H](CC(C)C)C(=O)N[C@@H](CC(C)C)C(N)=O)[C@@H](C)O)[C@@H](C)CC` is reported as 0.5 (checkerboard; ATCC 27853; together with: rifampicin).
`CN1CC(=O)N=C1N.C[C@H](CCC(=O)O)[C@H]1CC[C@H]2[C@@H]3CC[C@@H]4C[C@H](O)CC[C@]4(C)[C@H]3C[C@H](O)[C@]12C`: antibacterial activity “inactive” (TISTR357; 1 mg per disc, 18 to 24 h, 37 °C).
`CC[C@H](C)[C@H](NC(=O)[C@H](CCCNC(=N)N)NC(=O)[C@H](CCCCN)NC(=O)[C@H](CC(C)C)NC(=O)[C@H](CC(C)C)NC(=O)CN)C(=O)N[C@@H](CCCCN)C(=O)N[C@H](C(=O)N[C@@H](CC(C)C)C(=O)N[C@@H](CC(C)C)C(=O)NCCCC[C@H](NC(=O)[C@H](CCCCNC(=O)[C@H](CC(C)C)NC(=O)[C@H](CC(C)C)NC(=O)[C@@H](NC(=O)[C@H](CCCCN)NC(=O)[C@@H](NC(=O)[C@H](CCCNC(=N)N)NC(=O)[C@H](CCCCN)NC(=O)[C@H](CC(C)C)NC(=O)[C@H](CC(C)C)NC(=O)CN)[C@@H](C)CC)[C@@H](C)O)NC(=O)[C@H](CC(C)C)NC(=O)[C@H](CC(C)C)NC(=O)[C@@H](NC(=O)[C@H](CCCCN)NC(=O)[C@@H](NC(=O)[C@H](CCCNC(=N)N)NC(=O)[C@H](CCCCN)NC(=O)[C@H](CC(C)C)NC(=O)[C@H](CC(C)C)NC(=O)CN)[C@@H](C)CC)[C@@H](C)O)C(N)=O)[C@@H](C)O` has an FIC index of 0.5 (checkerboard; ATCC 27853; together with: rifampicin).
The lethal concentration of `CC[C@H](C)[C@H](NC(=O)[C@H](CCCCN)NC(=O)[C@H](CCCCN)NC(=O)[C@H](CC(C)C)NC(=O)[C@H](CCCCN)NC(=O)[C@H](CCC(=O)O)NC(=O)[C@H](CCCCN)NC(=O)[C@@H](NC(=O)[C@H](CCCCN)NC(=O)[C@H](CC(N)=O)NC(=O)[C@H](CCCNC(=N)N)NC(=O)[C@H](Cc1ccccc1)NC(=O)[C@H](CCCCN)NC(=O)[C@H](CCCNC(=N)N)NC(=O)[C@H](CC(C)C)NC(=O)[C@H](CCCNC(=N)N)NC(=O)[C@H](CCCCN)NC(=O)[C@H](CCCNC(=N)N)NC(=O)[C@H](CC(C)C)NC(=O)CN)[C@@H](C)CC)C(=O)NCC(=O)N[C@@H](CCC(N)=O)C(=O)N[C@@H](CCCCN)C(=O)N[C@H](C(=O)N[C@@H](CCC(N)=O)C(=O)NCC(=O)N[C@@H](Cc1ccccc1)C(=O)N[C@H](C(=O)N1CCC[C@H]1C(=O)N[C@@H](CCCCN)C(=O)N[C@@H](CC(C)C)C(=O)N[C@@H](C)C(=O)N1CCC[C@H]1C(=O)N[C@@H](CCCNC(=N)N)C(=O)N[C@H](C(=O)N[C@@H](CC(=O)O)C(=O)N[C@@H](Cc1ccc(O)cc1)C(=O)O)[C@@H](C)O)C(C)C)[C@@H](C)CC` is reported as 2.91 µM (inhibition zone method; 11082616, LB 0.8% agar with 154 mM NaCl; overnight, 37 °C).
`CC(C)C[C@H](NC(=O)[C@@H]1CSCC(=O)N[C@@H](CCCCN)C(=O)N[C@@H](CC(C)C)C(=O)N[C@@H](CC(C)C)C(=O)NCCCC[C@@H]2NC(=O)[C@H](CC(C)C)NC(=O)[C@H](CC(C)C)NC(=O)[C@H](CCCCN)NC(=O)CSC[C@H](NC(=O)[C@H](CC(C)C)NC(=O)[C@H](CC(C)C)NC(=O)[C@H](CCCCN)NC2=O)C(=O)N[C@@H](CCCCN)C(=O)N[C@@H](CCCCN)C(=O)N[C@@H](CCCCN)C(=O)N1)C(N)=O` — result for “minimal biofilm inhibitory concentration”: 8 µg/mL (PAO1; 24 to 25 h).
For `CC[C@H](C)[C@H](NC(=O)[C@H](CCCCN)NC(=O)[C@H](CCCCN)NC(=O)[C@H](CC(C)C)NC(=O)[C@H](CCCCN)NC(=O)[C@H](CCC(=O)O)NC(=O)[C@H](CCCCN)NC(=O)[C@@H](NC(=O)[C@H](CCCCN)NC(=O)[C@H](CC(N)=O)NC(=O)[C@H](CCCNC(=N)N)NC(=O)[C@H](Cc1ccccc1)NC(=O)[C@H](CCCCN)NC(=O)[C@H](CCCNC(=N)N)NC(=O)[C@H](CC(C)C)NC(=O)[C@H](CCCNC(=N)N)NC(=O)[C@H](CCCCN)NC(=O)[C@H](CCCNC(=N)N)NC(=O)[C@H](CC(C)C)NC(=O)[C@@H](N)CC(C)C)[C@@H](C)CC)C(=O)NCC(=O)N[C@@H](CCC(N)=O)C(=O)N[C@@H](CCCCN)C(=O)N[C@H](C(=O)N[C@@H](CCC(N)=O)C(=O)NCC(=O)N[C@@H](Cc1ccccc1)C(=O)N[C@H](C(=O)N1CCC[C@H]1C(=O)N[C@@H](CCCCN)C(=O)N[C@@H](CC(C)C)C(=O)N[C@H](C(=O)N1CCC[C@H]1C(=O)N[C@@H](CCCNC(=N)N)C(=O)N[C@H](C(=O)N[C@@H](CCC(=O)O)C(=O)N[C@@H](CO)C(=O)O)[C@@H](C)O)C(C)C)C(C)C)[C@@H](C)CC`, the lethal concentration was 1.84 µM (inhibition zone method; 11092618, LB 0.8% agar with 154 mM NaCl; overnight, 37 °C).
For `CC[C@H](C)[C@H](NC(=O)[C@H](Cc1c[nH]cn1)NC(=O)[C@H](CCCCNC(=O)[C@@H](NC(=O)[C@H](CCCCN)NC(=O)CSC[C@H](NC(=O)[C@H](Cc1ccccc1)NC(=O)[C@H](CCCCNC(=O)[C@H](CC(C)C)NC(=O)[C@@H]1CCCN1C(=O)[C@H](CCCCN)NC(=O)c1ccc(O[C@@H]2O[C@H](CO)[C@H](O)[C@H](O)[C@H]2O)cc1)NC(=O)[C@H](CC(C)C)NC(=O)[C@@H]1CCCN1C(=O)[C@H](CCCCN)NC(=O)c1ccc(O[C@@H]2O[C@H](CO)[C@H](O)[C@H](O)[C@H]2O)cc1)C(N)=O)[C@@H](C)CC)NC(=O)[C@@H](NC(=O)[C@H](CCCCN)NC(=O)CSC[C@H](NC(=O)[C@H](Cc1ccccc1)NC(=O)[C@H](CCCCNC(=O)[C@H](CC(C)C)NC(=O)[C@@H]1CCCN1C(=O)[C@H](CCCCN)NC(=O)c1ccc(O[C@@H]2O[C@H](CO)[C@H](O)[C@H](O)[C@H]2O)cc1)NC(=O)[C@H](CC(C)C)NC(=O)[C@@H]1CCCN1C(=O)[C@H](CCCCN)NC(=O)c1ccc(O[C@@H]2O[C@H](CO)[C@H](O)[C@H](O)[C@H]2O)cc1)C(N)=O)[C@@H](C)CC)C(N)=O`, the MBC was 30 µM (≈ 127 µg/mL) (PAO1; biofilm-forming conditions).
The lethal concentration of `CC[C@H](C)[C@H](NC(=O)[C@H](CCCCN)NC(=O)[C@H](CCCCN)NC(=O)[C@H](CC(C)C)NC(=O)[C@H](CCCCN)NC(=O)[C@H](CCC(=O)O)NC(=O)[C@H](CCCCN)NC(=O)[C@@H](NC(=O)[C@H](CCCCN)NC(=O)[C@H](CC(N)=O)NC(=O)[C@H](CCCNC(=N)N)NC(=O)[C@H](Cc1ccccc1)NC(=O)[C@H](CCCCN)NC(=O)[C@H](CCCNC(=N)N)NC(=O)[C@H](CC(C)C)NC(=O)[C@H](CCCNC(=N)N)NC(=O)[C@H](CCCCN)NC(=O)[C@H](CCCNC(=N)N)NC(=O)[C@@H](N)CC(C)C)[C@@H](C)CC)C(=O)NCC(=O)N[C@@H](CCC(N)=O)C(=O)N[C@@H](CCCCN)C(=O)N[C@H](C(=O)N[C@@H](CCC(N)=O)C(=O)NCC(=O)N[C@@H](Cc1ccccc1)C(=O)N[C@H](C(=O)N1CCC[C@H]1C(=O)N[C@@H](CCCCN)C(=O)N[C@@H](CC(C)C)C(=O)O)C(C)C)[C@@H](C)CC` is reported as 3.54 µM (inhibition zone method; 11092304, LB 0.8% agar with 154 mM NaCl; overnight, 37 °C).
`C[C@@](O)(C(F)F)[C@H](NC(=O)c1ccc(C#CC#CC2CC2)cc1)C(=O)NO` has an MIC90 of 0.5 µg/mL (≈ 1.33 µM) (agar dilution; susceptible clinical isolates).

Excerpt of the above:
`CC(C)C[C@H](NC(=O)[C@@H]1CSCC(=O)N[C@@H](CCCCN)C(=O)N[C@@H](CC(C)C)C(=O)N[C@@H](CC(C)C)C(=O)NCCCC[C@@H]2NC(=O)[C@H](CC(C)C)NC(=O)[C@H](CC(C)C)NC(=O)[C@H](CCCCN)NC(=O)CSC[C@H](NC(=O)[C@H](CC(C)C)NC(=O)[C@H](CC(C)C)NC(=O)[C@H](CCCCN)NC2=O)C(=O)N[C@@H](CCCCN)C(=O)N[C@@H](CCCCN)C(=O)N[C@@H](CCCCN)C(=O)N1)C(N)=O` — result for “minimal biofilm inhibitory concentration”: 8 µg/mL (PAO1; 24 to 25 h).
